Assay results of several laboratories.
Each line is one published result; not all experiments were run side by side. Several values in a cell are separate wells, animals, samples, runs or records. ± marks the error that the study gave.

Cc1c(Cl)c(=O)oc2cc(OCCCC[Se]C#N)ccc12  embryonic lethality (Caenorhabditis elegans; N2 Bristol, NGM with E. coli OP50; 100 µM, 24 h): 34.3%
O=[N+]([O-])c1ccc(N2CCN(CCC(O)c3ccc(F)cc3)CC2)c(C(F)(F)F)c1 (stereo not drawn)  survival (Salmonella typhimurium; SOS/umu test; TA1535/pSK1002; 0.008 mg/mL, 4 h, without S9, full range): 114%
CC(C)N(N=O)C(C)C  revertant colonies per plate (Escherichia coli; mutagenicity, Ames plate incorporation; WP2 uvrA pKM101; 500 µg/plate, without S9, methanol): 178 ± 9
O=[N+]([O-])c1ccc(NC2CCNCC2)c(C(F)(F)F)c1  survival (Salmonella typhimurium; SOS/umu test; TA1535/pSK1002; 0.031 mg/mL, 4 h, without S9, full range): 99.3%
O=NN1CCN(C2CCCC2)CC1  revertant colonies per plate (Escherichia coli; mutagenicity, Ames plate incorporation; WP2 uvrA pKM101; 500 µg/plate, 3 d, without S9, methanol): 141 ± 9
COc1cccc(-c2n[nH]c(SCc3ccccn3)n2)c1OC  revertant colonies per plate (Salmonella typhimurium; Ames test, preincubation; TA1537; 0.25 mg/plate, with rat liver S9): 8
[Cl-].[Cl-].[Pt+2].[Ru+2].c1ccc(-c2nccnc2-c2ccccn2)nc1.c1cnc2c(c1)ccc1cccnc12.c1cnc2c(c1)ccc1cccnc12  survival rate (Danio rerio; embryos; 30 µM, 12 h): 90 ± 3%
CC(=O)N1CCC(C(=O)N2CCN3C(=O)c4cc(-c5ccccc5)ccc4NC(=O)C3C2)CC1 (stereo not drawn)  revertants per plate (Salmonella typhimurium; TA98; 5.0 µg/plate): 32.5
CN(CC(C)(C)C)N=O  lowest mutagenic concentration (Escherichia coli; WP2uvrA pKM101, methanol; concentration not given, plate incorporation, no S9): 5000 µg/plate
CC(C)C[C@H](NC(=O)[C@H](Cc1c[nH]cn1)NC(=O)[C@H](Cc1c[nH]cn1)NC(=O)[C@H](Cc1ccc(O)cc1)NC(=O)[C@@H](N)CS)C(=O)N[C@H](C(=O)N[C@@H](CC(C)C)C(=O)N[C@H](C(=O)N[C@H](C(=O)NCC(=O)NCC(=O)N[C@@H](CO)C(=O)O)C(C)C)[C@@H](C)O)C(C)C  body weight (Epstein-Barr virus; B-NDG humanized mouse, EBV-infected; 20 mg/kg, day 28): 21.2 g and 21.5 g and 23.4 g
CC(C)N(C)N=O  revertant colonies per plate (Escherichia coli; mutagenicity, Ames plate incorporation; WP2 uvrA pKM101; 500 µg/plate, 3 d, without S9, methanol): 155 ± 3
OC(CCN1CC=C(c2ccc(F)cc2)CC1)c1ccc(F)c2ccccc12 (stereo not drawn)  survival (Salmonella typhimurium; SOS/umu test; TA1535/pSK1002; 0.004 mg/mL, 4 h, without S9, lower range): 128%
CNC(=O)c1c(N(C)N=O)ncn1C  revertant colonies per plate (Escherichia coli; plate incorporation; WP2uvrA pKM101, water; 2500 µg/plate, without S9): 125 ± 18
O=[N+]([O-])c1ccc(N2CCC(NCCC(O)c3ccc(F)c4ccccc34)CC2)c(C(F)(F)F)c1 (stereo not drawn)  survival (Salmonella typhimurium; SOS/umu test; TA1535/pSK1002, TGA medium; 0.000122 mg/mL, 4 h, without S9): 109%
Cc1cc(C(=O)NC(C)(C)COc2cccc3c2C(N)=NS(=O)(=O)N3)cc(C)n1  revertant ratio (Salmonella typhimurium; Ames test, confirmatory; TA100; 100 µg/plate; reference: solvent control): 0.9

For quick reference, copied from above:
CC(C)N(C)N=O  revertant colonies per plate (Escherichia coli; mutagenicity, Ames plate incorporation; WP2 uvrA pKM101; 500 µg/plate, 3 d, without S9, methanol): 155 ± 3
